Results from different studies.
A part holds a random share of what one study measured.

Block 1 — method: protein-binding microarray; form: double-stranded DNA, one strand shown; matrix: in vitro; concentration: 250 nM; notes: 60-bp whole probe; with: salmon DNA 0.4 mg/ml; relative to: random background probes; direction: higher = stronger binding; endpoint: log fluorescence; shared flanks, not repeated: GCCTAGCAC … GTCTTGATTCGCTTGACGCTGCTG
Target: Interferon regulatory factor 7, full length, phosphomimetic (IRF7, Homo sapiens, UniProt Q92985, residues 1-503, S101K/S471D/S472D/S475D/S476D/S477D/S483D/S484D/S487D)
Residues (chain): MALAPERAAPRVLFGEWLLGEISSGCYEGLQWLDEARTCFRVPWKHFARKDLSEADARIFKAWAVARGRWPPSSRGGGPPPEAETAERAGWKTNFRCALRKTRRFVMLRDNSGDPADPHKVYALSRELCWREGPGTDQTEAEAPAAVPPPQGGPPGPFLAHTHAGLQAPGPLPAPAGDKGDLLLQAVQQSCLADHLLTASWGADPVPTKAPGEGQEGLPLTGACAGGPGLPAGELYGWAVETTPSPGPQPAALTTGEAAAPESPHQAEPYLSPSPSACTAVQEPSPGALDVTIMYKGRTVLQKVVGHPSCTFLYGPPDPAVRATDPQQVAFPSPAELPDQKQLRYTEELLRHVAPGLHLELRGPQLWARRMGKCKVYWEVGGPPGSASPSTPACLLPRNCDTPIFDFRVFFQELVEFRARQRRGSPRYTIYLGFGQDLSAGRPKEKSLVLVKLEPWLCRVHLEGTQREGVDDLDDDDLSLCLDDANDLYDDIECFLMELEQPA
Oligonucleotide = TTAGAACTCGGGTATCGATTAGTGCTA; value = 0.864 z-score
Oligonucleotide = GGCGGTATCGGGTTTCGGGACGTGCTA; value = 3.57 z-score
Oligonucleotide = TCACCTCCAGGTTCTCTGACTGTGCTA; value = -0.162 z-score
Oligonucleotide = TTCACTTTAAATTAGACTTAGTGCTAG; value = 0.644 z-score
Oligonucleotide = GAAGAACTGAGTTTCGAGACGTGCTAG; value = 4.01 z-score
Oligonucleotide = TTAGATATCAGGTTTCGATTAGTGCTA; value = 7.9 z-score
Oligonucleotide = GGTCCCACCTCTTGGTGGGAGTGCTAG; value = 0.958 z-score
Oligonucleotide = GACGGACTGCTACTGCTGAGGTGCTAG; value = -0.958 z-score

Block 2 — read-out: enzyme activity; action: inhibitor; concentration: 20 µM; notes: primary screen; endpoint: inhibition
Target: Replicase polyprotein 1ab, main protease (rep, Severe acute respiratory syndrome coronavirus 2, UniProt P0DTD1)
SMILES = C[n+]1c2cc(N)ccc2cc2ccc(N)cc21; value = 75.2%
SMILES = Nc1cc(-c2ccncc2)c[nH]c1=O; value = 56%
SMILES = CCOC(=S)SSC(=S)OCC; value = 99.1%
SMILES = Oc1c(CN2CCCC2)cc(COCc2ccccc2)c2cccnc12; value = 28.7%

Block 3 — method: protein-binding microarray; form: double-stranded DNA, one strand shown; matrix: in vitro; concentration: not given; direction: higher = stronger binding; endpoint: E-score
Target: Protein C-ets-1 (ETS1, Homo sapiens, UniProt P14921, residues 1-441, full length assumed)
Notes: k-mer, scored over probes, only values ≥0.25
Construct (chain): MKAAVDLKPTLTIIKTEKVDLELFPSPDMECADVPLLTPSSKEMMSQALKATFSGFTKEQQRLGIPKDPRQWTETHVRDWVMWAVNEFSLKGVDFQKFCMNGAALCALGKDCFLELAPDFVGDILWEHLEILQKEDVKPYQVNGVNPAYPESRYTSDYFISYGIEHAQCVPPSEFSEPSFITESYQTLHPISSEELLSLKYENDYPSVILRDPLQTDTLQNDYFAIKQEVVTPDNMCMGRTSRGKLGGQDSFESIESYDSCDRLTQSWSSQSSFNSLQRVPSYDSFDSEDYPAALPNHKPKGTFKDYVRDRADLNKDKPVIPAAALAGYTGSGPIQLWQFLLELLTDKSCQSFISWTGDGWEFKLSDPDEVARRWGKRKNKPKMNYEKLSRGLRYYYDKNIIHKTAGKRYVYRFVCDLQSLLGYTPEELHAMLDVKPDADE
Oligonucleotide = GAAAGGAA; value = 0.324
Oligonucleotide = AAAGGATA; value = 0.302
Oligonucleotide = CCGGCAGG; value = 0.274
Oligonucleotide = CTCCGGAC; value = 0.331
Oligonucleotide = TTCCGCAA; value = 0.419

Block 4 — cell line: HEK-293T; read-out: pseudovirus infection; method: FDA-approved drug library screen; organism: VSV pseudotyped with SARS-CoV-2 spike; concentration: 10 µM; time: 16 h; relative to: vehicle-treated; endpoint: GFP-positive cells
Compound = CC(C(=O)O)c1ccc2c(c1)[nH]c1ccc(Cl)cc12 (centres unmarked); value = 79.7%
Compound = CC#C[C@]1(O)CC[C@H]2[C@@H]3CCC4=CC(=O)CCC4=C3[C@@H](c3ccc(N(C)C)cc3)C[C@@]21C; value = 76.6%
Compound = CC(C)[C@H]1CC[C@H](C(=O)N[C@H](Cc2ccccc2)C(=O)O)CC1; value = 71.9%

Block 5 — read-out: enzyme activity; action: inhibitor; concentration: 20 µM; endpoint: inhibition
Target: Replicase polyprotein 1ab, polymerase (rep, Severe acute respiratory syndrome coronavirus 2, UniProt P0DTD1)
Compound = CCCCC(=O)NCCc1c(Cc2ccccc2)[nH]c2ccccc12; value = -11.8%
Compound = CC(C)(Oc1ccc(C(=O)c2ccc(Cl)cc2)cc1)C(=O)O; value = -3.04%
Compound = CN(C)CCN(C)CCc1ccc(Cl)c(Cl)c1; value = 8.68%
Compound = NC(=O)c1[nH]cnc1O; value = -3.89%
Compound = COc1ccc(/C=C/CCCCOc2ccc(C(=O)c3cccc(C(=O)O)c3)cc2CCC(=O)O)cc1; value = 5.85%
Compound = CCC1=C[C@@H]2CN3CCc4c([nH]c5ccccc45)[C@@](C(=O)OC)(C2)[C@@H]13; value = -2.17%
Compound = CC(=O)[C@H]1CC[C@H]2[C@@H]3CC[C@H]4C[C@](C)(O)CC[C@]4(C)[C@H]3CC[C@]12C; value = 0.91%
Compound = O=C1NCN(c2ccccc2)C12CCN(CC1COc3ccccc3O1)CC2 (centres unmarked); value = 14.2%
Compound = Clc1ccc(C(Cn2ccnc2)OCc2csc3c(Cl)cccc23)c(Cl)c1 (centres unmarked); value = -2.49%
Compound = C#Cc1c[nH]c(=O)[nH]c1=O; value = 0.87%
Compound = CCN(CC)CCOC(=O)C(c1ccccc1)c1ccccc1; value = -1.5%
Compound = CO[C@H]1C[C@H](O[C@@H]2/C(C)=C/C[C@@H]3C[C@@H](C[C@]4(CC[C@H](C)[C@@H](C5CCCCC5)O4)O3)OC(=O)[C@@H]3C=C(C)/C(=N/O)[C@H]4OC/C(=C\C=C\[C@@H]2C)[C@]43O)O[C@@H](C)[C@@H]1O; value = -2.39%
Compound = c1coc(-c2nnc3sc(C4CCCCC4)nn23)c1; value = -8.9%
Compound = O=C(CN1C2=NCCN2c2ccccc21)c1ccc(-c2ccccc2)cc1; value = 1.46%
Compound = COc1ccc2c(c1)CN(C)CC2c1ccc(Cl)c(Cl)c1 (centres unmarked); value = 2.14%
Compound = CN(CCc1ccc(Cl)c(Cl)c1)CCN1CCCC1; value = -3.73%
Compound = O=C(c1ccc(/C=C/c2n[nH]c3ccccc23)cc1)N1CCNCC1; value = 17.9%
Compound = C[C@@H](O)[C@H]1C(=O)N2C(C(=O)O)=C([C@H]3CCCO3)S[C@H]12; value = 2.84%
Compound = CC(C)(Oc1ccc(CCNC(=O)c2ccc(Cl)cc2)cc1)C(=O)O; value = -6.03%
Compound = Cn1c(N2CCCCS2(=O)=O)nc(C(=O)NCc2ccc(F)cc2)c(O)c1=O; value = -0.99%
Compound = NC[C@@H](CC(=O)O)c1ccccc1; value = -1.36%
Compound = NC(=O)c1ccccc1O; value = -2.76%
Compound = COc1cc(C)c(/C=C/C(C)=C/C=C/C(C)=C/C(=O)O)c(C)c1C; value = 0.2%
Compound = Cc1ccnc2c1CCCC2C(N)=S (centres unmarked); value = -0.13%
Compound = Cc1cc(C)c(S(=O)(=O)Nc2ccccc2C(F)(F)F)c(C)c1; value = -5.79%

Block 6 — method: protein-binding microarray; form: double-stranded DNA, one strand shown; matrix: in vitro; concentration: 0.8 µM; notes: whole 60-bp probe, no competitor; direction: higher = stronger binding; endpoint: fluorescence intensity; shared flanks, not repeated: … GTCTTGATTCGCTTGACGCTGCTG
Target: Centromere-binding protein 1, full length, N-terminal tag (CBF1, Saccharomyces cerevisiae, UniProt P17106, residues 1-351)
Sequence of UniProt P17106 (whole entry, looked up): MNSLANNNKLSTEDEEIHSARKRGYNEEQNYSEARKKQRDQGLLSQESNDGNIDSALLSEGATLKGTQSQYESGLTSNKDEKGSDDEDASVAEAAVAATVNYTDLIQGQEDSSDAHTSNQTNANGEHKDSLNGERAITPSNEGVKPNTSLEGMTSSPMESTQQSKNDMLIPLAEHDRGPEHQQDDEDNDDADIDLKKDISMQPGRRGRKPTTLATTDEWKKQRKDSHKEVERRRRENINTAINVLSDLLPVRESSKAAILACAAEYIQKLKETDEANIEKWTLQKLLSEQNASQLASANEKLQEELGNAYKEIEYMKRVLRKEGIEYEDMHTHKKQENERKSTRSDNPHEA
Oligonucleotide = CTATTGAACAATAAGCACGACCTTCATCTTAGGTTC; value = 537 a.u.
Oligonucleotide = TGTACGAAGCTATGCAACACGCATATAGTAGTTAGG; value = 529 a.u.
Oligonucleotide = CTAAAGAAGCCGCATCACCTTAAACACTAACCATTC; value = 515 a.u.
Oligonucleotide = CTATTGTTAGAAATTCACGGGATTTATTCGTGATTC; value = 653 a.u.
Oligonucleotide = GAATTTTGGACTTTTCACGTTGCAGGGACAGCATAG; value = 610 a.u.
Oligonucleotide = GAAACAATTTTTGAACACGCAATGCCTATGTATTAG; value = 533 a.u.
Oligonucleotide = CTAGCAATTAACTATCACACCATAGAATGAGTTTTC; value = 618 a.u.
Oligonucleotide = TGTACGAAGCTATGTCACGACTCTATAGTAGTTAGG; value = 672 a.u.

Repeated from above (block 5):
Compound = Cn1c(N2CCCCS2(=O)=O)nc(C(=O)NCc2ccc(F)cc2)c(O)c1=O; value = -0.99%
Compound = NC[C@@H](CC(=O)O)c1ccccc1; value = -1.36%
Compound = NC(=O)c1ccccc1O; value = -2.76%
Compound = COc1cc(C)c(/C=C/C(C)=C/C=C/C(C)=C/C(=O)O)c(C)c1C; value = 0.2%
Compound = Cc1ccnc2c1CCCC2C(N)=S (centres unmarked); value = -0.13%
Compound = Cc1cc(C)c(S(=O)(=O)Nc2ccccc2C(F)(F)F)c(C)c1; value = -5.79%
